Measured values collected from several papers.
Each numbered part is a random draw from the data of one study; scales do not carry over between parts. Substitutions count along the parent as printed.

Study 1
Target: Histone acetyltransferase KAT6A, winged helix 2, GST fusion (KAT6A, Homo sapiens, UniProt Q92794, residues 85-181)
Technique: protein binding microarray
Molecule type: double-stranded DNA, one strand shown
Medium: in vitro
Concentration: not given
Notes: 8-mer, flanks averaged, mean of 2 arrays, mostly near background
Baseline: not given
Direction: higher = stronger binding
Endpoint: E-score
Target sequence (chain): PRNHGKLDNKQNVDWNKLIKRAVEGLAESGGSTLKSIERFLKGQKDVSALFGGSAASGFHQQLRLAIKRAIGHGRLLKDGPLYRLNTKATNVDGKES
CCATCTTC: 0.142
CAACAAAC: 0.0162
TACTCGCA: 0.0829
CCATCCCG: -0.00696
TCTGCTAA: 0.0894
CAAATACG: -0.0354
CAGCGCGC: 0.125
ACTAGTCA: -0.233
ATTAGAAT: 0.114
CGTATGCA: -0.0633
CGTGTTCA: 0.0573
ACAGCGAT: -0.0436
GGACGCAC: 0.0558
GAGCACCA: -0.00188
CCGTGCGC: 0.0698
ATAAAGAC: -0.0428
CGTCCGTC: -0.126
CGACATAA: 0.0348
AATTCGGC: -0.0591
TCAAACAA: 0.163
TCAGAGCA: 0.047
CTATTGTC: -0.147
ACAATATG: -0.0295
CAACTACA: 0.0515
ATGTGCAA: -0.0823

Study 2
Target: CCNE1, cyclin fold, Cln2 fusion (human)
Technique: yeast growth competition, sequencing
Medium: yeast
Notes: weak parent motif
Baseline: not given
Direction: higher = stronger binding
Endpoint: normalised enrichment score
Starting sequence: SAMHD1 docking peptide (human); ASKSRVQLFKDDP
ASQSRVQLFKDDP [K3Q]: 0.0438
ASYSRVQLFKDDP [K3Y]: 0.106
ASKSRVMLFKDDP [Q7M]: -0.18
ASKSRVQLFKWDP [D11W]: -0.036
ASKSRVQLFKDTP [D12T]: 0.158
ASKSWVQLFKDDP [R5W]: 0.406
ASKSRFQLFKDDP [V6F]: 0.192
ASMSRVQLFKDDP [K3M]: 0.065
APKSRVQLFKDDP [S2P]: 0.218
ASKSRVQPFKDDP [L8P]: -0.191
ASKSRVQLFKDCP [D12C]: -0.245
ASASRVQLFKDDP [K3A]: 0.372
ASKSRVQLFKFDP [D11F]: 0.382
ASKSRVQLFKDIP [D12I]: 0.293
ASKSRVQLFKHDP [D11H]: -0.0666
ASKSRVQLFKEDP [D11E]: 0.369
ASKSRVQLFKPDP [D11P]: 0.194
ASKSRVQLFWDDP [K10W]: 0.316
ASKDRVQLFKDDP [S4D]: 0.086
ASKSRIQLFKDDP [V6I]: -0.14

Study 3
Target: RNA binding protein fox-1 homolog 2, RRM domain, GST-SBP tag (RBFOX2, Homo sapiens, UniProt O43251-10, residues 100-194)
Technique: RNA Bind-n-Seq
Molecule type: RNA
Medium: in vitro
Concentration: 365 nM
Notes: natural RNA segment, single round, ends assumed
Baseline: no-protein control
Direction: higher = stronger binding
Endpoint: RBNS enrichment (R)
Constant ends, left off below: GGGAGUUCUACAGUCCGACGAUC … UGGAAUUCUCGGGUGCCAA
Construct (chain): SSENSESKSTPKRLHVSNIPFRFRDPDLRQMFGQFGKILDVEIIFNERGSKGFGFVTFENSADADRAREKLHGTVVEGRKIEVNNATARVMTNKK
AUUUGGAGAGAUACUCAAAAGAGCUAAAACUGCAGCAUUUUACCUUUAAAUGCAGUGCCUAGAGAGAGAGUAUUGUCUCUUCCCCAACACUAACCCCACUCCCAUGAAGA: 0.611
ACUUUUGAAAAAUUAGAAUUCCUUUGCAUUCAGCAUGGACUCAGCCAGGAAUCUAUGGAGGAUUUUUUUUUUUGCUUCAUUUUCUAAAGUUGUAUUUAGAAAUAUCUUAU: 8.71
GAGCCACUGGGGCGCAGCAGCGCGCUGCCCCUCUGCCCCAGGGACACCGGGCGCGCAUAACCACCCCUAAUCCCGGUAUUCAGUGGUGAUGCCUAAAGGAAUGUCAGAAA: 0.258
CAUUGCCAUUUAUUCUAGAAUUAAUCAUGCAUUUGAGGUAAUACAAAAUAUAGUUUUAUCAUGUUAGGUGUAAUUAUGAUUUGAUUAAAUAUAUAAUGCAUUUGCAGUUG: 0.284
GAAGAAAAAAGUUGGCAUUUCUUGGUCCUCCGUUCAUAACACAAAGCAGAGUAGUAUUUUUAUAUUUAAAUGUUAAAAACAAAAAAGUUAUAUAUAUAUGGAUGUGUGGA: 0.83
UGUAGUGCAGAACGUUUAUUGCUGUUUUUGUGUUUGAAUAGUAUAAUGUUUGAUGCCUCUCUUCUGCAAAGCGUAUCAUCUCAUUGACUGUGAAUCUGUAUAUUAUUCUG: 0.731
AACUUAAAUAUCUUUUUGAUGGUGGUGUUUCUUUGUGACUGAGCCAGUAGACUCACACUAUAUGCUUUUUUGGGUUUGCCCGUUCCUUCCCCCACCCCCCCAGUUUUUUC: 0.534
AGUACAAGUGCGAUUUCAAAAAGAUCUUGAAAGUAAUAUAUUUAAUCAAUUAAAAUGUUUAUCUGUACUUGUUGAUGUUUCAUUAAUAUAGUUACUCUCUGAAGCAUUAG: 0.472

Study 4
Target: Phosphate system positive regulatory protein PHO4, full length, GST-tagged (PHO4, Saccharomyces cerevisiae, UniProt P07270, residues 1-312)
Technique: competition protein-binding microarray
Molecule type: double-stranded DNA, one strand shown
Medium: in vitro
Concentration: 2 µM
Notes: whole 60-bp probe, lowest competitor level
Added: Cbf1 competitor, 0.05 µM
Direction: higher = stronger binding
Endpoint: fluorescence intensity
Constant ends, left off below: … GTCTTGATTCGCTTGACGCTGCTG
Construct (chain): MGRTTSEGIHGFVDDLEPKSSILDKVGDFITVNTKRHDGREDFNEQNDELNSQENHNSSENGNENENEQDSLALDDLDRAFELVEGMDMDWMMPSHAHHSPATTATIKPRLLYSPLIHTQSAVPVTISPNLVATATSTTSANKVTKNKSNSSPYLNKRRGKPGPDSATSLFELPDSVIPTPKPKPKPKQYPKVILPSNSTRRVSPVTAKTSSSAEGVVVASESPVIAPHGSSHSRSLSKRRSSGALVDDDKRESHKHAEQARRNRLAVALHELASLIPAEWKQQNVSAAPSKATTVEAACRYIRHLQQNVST
CGCTACCAACTGCGCCATGTGCCCTGATGACTGTTG: 11900 a.u.
CGAAATGGCACTGACCATGCGGAGCCAGCGCCGGAA: 5690 a.u.
TCTAGTAGGTGCGCCAGCGTGCGATGATGTGATGAG: 9830 a.u.
CGTCCTAGTGATTGTCACAGGACTTCCATGAGGAAG: 4300 a.u.
CTTTCCCGATCTTGGGCTGTGGGTGTAGCACATTTG: 4000 a.u.
ATACCGGCTCGATAACATGTGTCAAATTCTCACCGG: 8980 a.u.
CTTCTGTAAATTTGCGAAGTGGGTGGACGCGCCCCG: 3960 a.u.
CGTCCTAGTGATTTTCACGTGTAATCCATGAGGAAG: 12400 a.u.
CTATCCCTTTCTTTGCACGTGATGGTAAGAATCGTA: 16800 a.u.
TGCGCAACAACTTGTCACACTACTTTATGTCTAGAA: 4020 a.u.
GGGAAAAAAATTGACCACGTGACTCGAGAATCAACT: 16800 a.u.
TATGCGATGAATACGCACATGGGCTCTCCTGGCGGA: 11200 a.u.
AAAGCGGTAATTTTTCACGTGCGATCAAATATCTAT: 13900 a.u.
GCAATCCGAGCTTGACACATGGTTTCTGGAGGTCTG: 7220 a.u.
CATGAAATTGCTTACGTCGTGCCAGATTACATATAG: 9840 a.u.
CTTTCCCGATCTTGTGGCGTGGGTGTAGCACATTTG: 7540 a.u.
GTCTTGTCTCATTGTTATGTGGGTGTCCCCACTTCA: 5240 a.u.
CGTCCTAGCGATTGATCCGTGGGTGCCATGAGGAAG: 7050 a.u.
GAAAAGTGGTATGCACTCGTGGGTATTTTTACAACT: 11800 a.u.

Study 5
Target: Sal-like protein 4, full length isoform B (SALL4, Homo sapiens, UniProt Q9UJQ4-2, residues 1-616)
Technique: universal PBM
Molecule type: double-stranded DNA, one strand shown
Medium: in vitro
Concentration: not given
Notes: 8-mer, flanks averaged, mean of replicates
Direction: higher = stronger binding
Endpoint: E-score
CAGGGCCC: -0.391
GATTACAC: 0.123
CAAGAGCA: -0.0382
TTCGTAAA: 0.298
CCTGAGTC: -0.279
CTAAAGTC: -0.0457
CGTTAGTA: 0.118
CTTCCGGA: -0.225
ATACGAGG: -0.0485
CCGGGGCA: -0.371
ATTAGTTG: 0.261
AGACCCGC: -0.277
AATTTTGG: 0.244
CCTTGCCC: -0.25
AGCGGTGG: -0.267
CGCGCGTC: -0.162

For quick reference, copied from above (study 1):
TCAGAGCA: 0.047
CAAATACG: -0.0354
CCATCCCG: -0.00696
ACAATATG: -0.0295
GGACGCAC: 0.0558
ACAGCGAT: -0.0436
CGTATGCA: -0.0633
CAACAAAC: 0.0162
